Literature values as cited in several papers.
Each line is one published result; not all experiments were run side by side.

Compound	tested on	test	system	setting	how to read	endpoint	value
C[C@@H]1CN(c2cc(-c3n[nH]c4ccc(OC5(C)CC5)cc34)ncn2)C[C@H](C)O1	CLK4	enzyme activity, kinase panel	–	–	–	IC50	255 nM
Nc1nc2cc(-c3ccc4ncc(C(=O)N5CCOCC5)n4c3)ccc2o1	–	–	rat	–	–	well tolerated dose	≤ 50 mg/kg/day
CN(C)[C@@H]1CCN(c2cc(-c3ccccc3)nc3ccnn23)C1	MRGPRX2	cellular activity	–	–	–	EC50	740 nM
CC(O)(P(=O)(O)O)P(=O)(O)OP(=O)(O)OC[C@H]1O[C@@H](n2ccc(N)nc2=O)[C@@H](O)[C@@H]1O (some centres unmarked)	–	–	buffer	concentration not given, pH 7.4, 37 °C	–	hydrolysis half-life	12 h
COCCc1ccc(-c2c(C)nc3c(N4CCOCC4)ccnn23)cn1	human PDE10A	biochemical	–	–	–	Ki	13 nM
Nc1nc(F)nc2c1ncn2[C@@H]1O[C@H](CO)[C@@H](O)[C@@H]1O	Toxoplasma gondii	parasite growth	–	concentration not given, published screen	–	activity class	inactive
Cc1cc(Nc2nccc(C)n2)cc(-c2cnc([C@@]3(O)CC[C@H](C(=O)O)C(C)(C)C3)s2)c1	FGR	–	–	kinase panel	–	IC50	185 nM
CCCCCCCCNC(C)C(O)c1ccc(SC(C)C)cc1 (centres unmarked)	MCF7	microarray, refers to: UPP1 mRNA	–	concentration not given	baseline: DMSO	log2 fold change	1.21
